Results collected from several papers.
Lines come from different studies, so protocols differ. ± gives the spread as reported.
AURKA: Aurora kinase A (AURKA, Homo sapiens, UniProt O14965)
UniProt O14965, sequence (whole entry, looked up): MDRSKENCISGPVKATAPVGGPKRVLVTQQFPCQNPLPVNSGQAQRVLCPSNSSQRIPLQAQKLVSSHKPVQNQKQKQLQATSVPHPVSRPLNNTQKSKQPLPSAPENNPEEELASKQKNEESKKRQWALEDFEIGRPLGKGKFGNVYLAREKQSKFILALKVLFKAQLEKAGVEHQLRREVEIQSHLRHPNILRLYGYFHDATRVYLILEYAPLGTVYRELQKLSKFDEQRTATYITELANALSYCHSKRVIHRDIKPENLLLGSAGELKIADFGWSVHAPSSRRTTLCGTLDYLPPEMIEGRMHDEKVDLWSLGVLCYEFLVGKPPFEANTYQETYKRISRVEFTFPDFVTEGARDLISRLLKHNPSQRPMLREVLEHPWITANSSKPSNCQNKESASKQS

| Compound | target | assay | system | conditions | scale | measurement | result |
| --- | --- | --- | --- | --- | --- | --- | --- |
| COCCNc1nc2ccc(C#CC3(O)CCCCC3)cc2n1-c1ccnc(N)n1 | AURKA | enzyme activity, inhibitor, Z'-LYTE |  | 1 µM | reference: no-inhibitor control | remaining kinase activity | 10.2% |
| C=CC(=O)N1CCC([C@@H]2CCNc3c(C(N)=O)c(-c4ccc(Oc5ccccc5)cc4)nn32)CC1 | AURKA | kinase activity, inhibitor, HotSpot radiometric |  | 100 nM, together with: ATP 10 µM |  | remaining activity | 92.7 ± 0.3% |
| CN(C)C(=O)c1cc2cnc(Nc3ccc(-c4ccc5c(=O)cc(N6CCOCC6)oc5c4)cc3)nc2n1C1CCCC1 | AURKA | KINOMEscan binding |  | 1.0 µM | reference: control | remaining binding | 0% |
| O=C1NC(=O)/C(=C/c2ccc(-c3ccc(F)cc3O)o2)S1 | AURKA | enzyme activity |  | 10 µM |  | remaining activity | 95% |
| COc1cc(F)ccc1-c1ncnc(Nc2cccc(C[S@](C)(=N)=O)c2)n1 | AURKA | kinase activity |  | 10 µM, together with: 10 µM ATP |  | remaining activity | 48% |
| C=CC(=O)N1CCC(COCC(=O)N2CCN(c3nc(-c4cnc(N)nc4C(F)F)nc(N4CCOC[C@@H]4C)n3)CC2)CC1 | AURKA | KINOMEscan |  | 1 µM |  | remaining binding | 95% |
| CC(=O)ON=C1C=CC(=C(C#N)c2ccccc2)C=C1 | AURKA | kinase activity, ADP-Glo |  | 20 µM |  | inhibition | 34% |
| CC/C(=N\NC(=O)NCc1cccc(O)c1)c1ccc(O)c(C)c1O | Aurora kinase A, with TPX2 (AURKA, Homo sapiens, UniProt O14965) | kinase activity |  | 0.1 µM |  | inhibition | 4.2% |
| COc1ccc(F)cc1C(=O)NCc1ccc(-c2nn([C@@H](C)C(F)(F)F)c(N)c2C(N)=O)cc1 | AURKA | kinase activity, inhibitor, HotSpot radiometric |  | 100 nM, together with: ATP 10 µM |  | remaining activity | 80.4 ± 1.2% |
| CC[C@@H]1[C@H](F)C(=O)N[C@@H]1COc1nccc2cc(C(N)=O)c(OC)cc12 | AURKA | ATP probe binding, KiNativ profiling, measured: Lys1 probe site | THP-1 cell lysate | 0.04 mM |  | inhibition | -2.4% |
| [2H]c1cc(C)c(NC(=O)c2cnc(Nc3cc(N4CCCCC4)nc(C)n3)s2)c(Cl)c1 | AURKA |  |  | 0.01 µM |  | inhibition | < 30% |
| C=CC(=O)N1CCC[C@@H](n2nc(-c3ccc(Oc4ccccc4)cc3)c3c(N)ncnc32)C1 | AURKA | kinase activity, inhibitor, HotSpot radiometric |  | 100 nM, together with: ATP 10 µM |  | remaining activity | 81.4 ± 2.5% |

For quick reference, copied from above:
| Compound | target | assay | system | conditions | scale | measurement | result |
| --- | --- | --- | --- | --- | --- | --- | --- |
| CC/C(=N\NC(=O)NCc1cccc(O)c1)c1ccc(O)c(C)c1O | Aurora kinase A, with TPX2 (AURKA, Homo sapiens, UniProt O14965) | kinase activity |  | 0.1 µM |  | inhibition | 4.2% |
